Measurements gathered from unrelated publications.
Parts stem from different laboratories: compare values within a part only.
UniProt Q9NYL2, sequence (whole entry, looked up): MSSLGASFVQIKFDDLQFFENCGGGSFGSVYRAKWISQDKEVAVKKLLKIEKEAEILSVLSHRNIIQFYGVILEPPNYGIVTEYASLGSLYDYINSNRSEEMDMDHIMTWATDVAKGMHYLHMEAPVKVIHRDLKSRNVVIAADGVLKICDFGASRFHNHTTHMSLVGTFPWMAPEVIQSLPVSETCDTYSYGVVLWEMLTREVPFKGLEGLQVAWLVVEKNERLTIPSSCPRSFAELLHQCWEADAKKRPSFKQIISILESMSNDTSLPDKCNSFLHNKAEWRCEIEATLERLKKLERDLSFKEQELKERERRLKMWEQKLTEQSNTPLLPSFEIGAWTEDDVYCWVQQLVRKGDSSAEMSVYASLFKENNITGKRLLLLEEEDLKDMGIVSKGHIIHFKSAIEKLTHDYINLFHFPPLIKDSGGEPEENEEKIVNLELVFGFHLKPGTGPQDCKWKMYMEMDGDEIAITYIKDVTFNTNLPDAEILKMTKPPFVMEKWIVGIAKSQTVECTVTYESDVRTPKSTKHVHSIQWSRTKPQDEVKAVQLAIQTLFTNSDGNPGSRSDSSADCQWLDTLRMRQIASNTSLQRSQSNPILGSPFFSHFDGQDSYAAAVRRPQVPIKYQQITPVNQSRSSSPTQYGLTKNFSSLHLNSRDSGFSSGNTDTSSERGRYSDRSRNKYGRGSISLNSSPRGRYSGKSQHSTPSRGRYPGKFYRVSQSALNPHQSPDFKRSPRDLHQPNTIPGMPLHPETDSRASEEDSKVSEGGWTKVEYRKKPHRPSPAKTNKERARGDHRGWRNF
UniProt Q13153, sequence (whole entry, looked up): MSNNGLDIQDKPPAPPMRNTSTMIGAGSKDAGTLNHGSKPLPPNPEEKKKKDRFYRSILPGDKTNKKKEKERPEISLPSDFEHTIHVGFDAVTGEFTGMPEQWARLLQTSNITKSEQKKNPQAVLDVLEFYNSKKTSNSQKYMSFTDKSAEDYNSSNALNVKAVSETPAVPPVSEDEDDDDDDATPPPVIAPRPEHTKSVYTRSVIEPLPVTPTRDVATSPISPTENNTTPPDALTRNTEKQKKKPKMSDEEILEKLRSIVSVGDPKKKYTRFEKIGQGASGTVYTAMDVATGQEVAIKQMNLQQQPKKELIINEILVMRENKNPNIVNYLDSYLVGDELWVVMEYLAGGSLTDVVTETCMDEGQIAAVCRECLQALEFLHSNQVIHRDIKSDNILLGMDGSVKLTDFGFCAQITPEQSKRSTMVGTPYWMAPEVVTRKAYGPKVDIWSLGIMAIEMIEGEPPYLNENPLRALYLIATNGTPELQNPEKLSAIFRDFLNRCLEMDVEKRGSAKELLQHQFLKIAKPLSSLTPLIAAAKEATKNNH
UniProt Q15418, sequence (whole entry, looked up): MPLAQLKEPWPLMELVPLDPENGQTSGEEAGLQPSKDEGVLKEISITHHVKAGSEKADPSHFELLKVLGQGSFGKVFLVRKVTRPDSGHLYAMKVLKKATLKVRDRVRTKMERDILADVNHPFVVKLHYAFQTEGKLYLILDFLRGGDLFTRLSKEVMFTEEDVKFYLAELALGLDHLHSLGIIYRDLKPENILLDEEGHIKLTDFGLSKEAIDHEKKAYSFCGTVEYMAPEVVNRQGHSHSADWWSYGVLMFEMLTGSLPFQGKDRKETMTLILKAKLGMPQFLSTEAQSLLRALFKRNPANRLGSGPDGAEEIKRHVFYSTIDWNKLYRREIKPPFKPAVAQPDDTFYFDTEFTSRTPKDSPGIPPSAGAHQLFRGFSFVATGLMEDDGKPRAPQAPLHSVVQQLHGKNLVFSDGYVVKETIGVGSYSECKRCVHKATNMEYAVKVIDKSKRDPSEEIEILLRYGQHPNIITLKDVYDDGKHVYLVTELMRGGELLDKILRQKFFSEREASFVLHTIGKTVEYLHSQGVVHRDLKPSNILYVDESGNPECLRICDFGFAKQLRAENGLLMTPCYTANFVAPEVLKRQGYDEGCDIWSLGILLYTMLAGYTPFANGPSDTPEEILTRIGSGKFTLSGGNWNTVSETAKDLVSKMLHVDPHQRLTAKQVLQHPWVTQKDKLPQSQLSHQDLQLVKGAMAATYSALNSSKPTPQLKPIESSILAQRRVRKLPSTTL
UniProt P36894, sequence (whole entry, looked up): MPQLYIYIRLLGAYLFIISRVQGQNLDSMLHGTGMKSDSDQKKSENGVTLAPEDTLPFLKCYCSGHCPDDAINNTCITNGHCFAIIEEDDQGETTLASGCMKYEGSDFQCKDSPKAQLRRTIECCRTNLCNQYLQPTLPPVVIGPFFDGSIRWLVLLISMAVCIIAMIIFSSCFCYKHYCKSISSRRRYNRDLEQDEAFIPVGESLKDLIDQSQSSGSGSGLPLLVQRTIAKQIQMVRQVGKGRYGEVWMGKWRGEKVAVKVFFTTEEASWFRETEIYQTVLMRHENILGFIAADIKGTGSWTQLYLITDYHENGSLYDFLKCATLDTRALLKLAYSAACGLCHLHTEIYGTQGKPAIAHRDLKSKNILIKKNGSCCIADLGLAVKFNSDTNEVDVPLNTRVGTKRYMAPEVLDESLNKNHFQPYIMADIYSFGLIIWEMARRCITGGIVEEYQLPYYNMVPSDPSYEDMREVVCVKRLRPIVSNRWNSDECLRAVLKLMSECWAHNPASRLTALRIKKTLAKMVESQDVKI
UniProt Q8N5S9, sequence (whole entry, looked up): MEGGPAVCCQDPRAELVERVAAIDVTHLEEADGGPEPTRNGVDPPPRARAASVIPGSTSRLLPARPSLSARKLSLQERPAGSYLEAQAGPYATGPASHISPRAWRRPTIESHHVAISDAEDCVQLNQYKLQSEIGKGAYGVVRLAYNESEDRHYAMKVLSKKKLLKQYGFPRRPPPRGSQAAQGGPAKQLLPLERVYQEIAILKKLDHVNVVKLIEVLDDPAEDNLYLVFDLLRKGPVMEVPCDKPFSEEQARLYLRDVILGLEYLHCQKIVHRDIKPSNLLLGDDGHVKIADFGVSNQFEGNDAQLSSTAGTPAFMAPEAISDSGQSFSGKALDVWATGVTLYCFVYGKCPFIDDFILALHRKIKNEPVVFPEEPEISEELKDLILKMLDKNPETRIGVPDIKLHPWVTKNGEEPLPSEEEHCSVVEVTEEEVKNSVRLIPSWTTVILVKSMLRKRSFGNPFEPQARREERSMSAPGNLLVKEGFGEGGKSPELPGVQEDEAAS
UniProt Q05513, sequence (whole entry, looked up): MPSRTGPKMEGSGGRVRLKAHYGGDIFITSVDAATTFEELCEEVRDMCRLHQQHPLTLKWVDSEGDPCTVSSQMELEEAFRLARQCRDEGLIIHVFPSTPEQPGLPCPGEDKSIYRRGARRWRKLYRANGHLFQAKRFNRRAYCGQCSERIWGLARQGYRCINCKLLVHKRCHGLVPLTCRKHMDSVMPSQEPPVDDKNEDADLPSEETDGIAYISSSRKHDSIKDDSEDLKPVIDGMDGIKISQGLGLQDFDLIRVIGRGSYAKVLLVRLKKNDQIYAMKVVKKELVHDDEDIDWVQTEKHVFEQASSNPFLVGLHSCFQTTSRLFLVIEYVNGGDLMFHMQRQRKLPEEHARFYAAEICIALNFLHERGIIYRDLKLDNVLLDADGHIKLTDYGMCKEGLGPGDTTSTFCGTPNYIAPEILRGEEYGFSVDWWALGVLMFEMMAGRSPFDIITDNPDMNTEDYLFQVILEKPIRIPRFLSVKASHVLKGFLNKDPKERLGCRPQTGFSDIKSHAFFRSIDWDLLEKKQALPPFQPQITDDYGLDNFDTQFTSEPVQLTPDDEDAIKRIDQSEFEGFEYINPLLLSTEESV
UniProt Q9HCP0, sequence (whole entry, looked up): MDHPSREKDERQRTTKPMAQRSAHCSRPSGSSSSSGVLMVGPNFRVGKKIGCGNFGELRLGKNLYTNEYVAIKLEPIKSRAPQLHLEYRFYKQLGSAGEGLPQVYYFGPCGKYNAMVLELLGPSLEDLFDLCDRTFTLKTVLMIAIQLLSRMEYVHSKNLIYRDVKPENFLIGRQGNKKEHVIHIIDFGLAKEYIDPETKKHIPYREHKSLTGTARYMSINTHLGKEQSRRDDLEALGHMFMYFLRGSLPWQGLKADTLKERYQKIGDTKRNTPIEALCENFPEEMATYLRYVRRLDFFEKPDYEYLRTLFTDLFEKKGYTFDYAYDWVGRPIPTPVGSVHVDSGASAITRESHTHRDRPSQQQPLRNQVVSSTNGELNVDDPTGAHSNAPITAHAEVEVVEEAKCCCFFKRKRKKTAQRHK
UniProt Q9H093, sequence (whole entry, looked up): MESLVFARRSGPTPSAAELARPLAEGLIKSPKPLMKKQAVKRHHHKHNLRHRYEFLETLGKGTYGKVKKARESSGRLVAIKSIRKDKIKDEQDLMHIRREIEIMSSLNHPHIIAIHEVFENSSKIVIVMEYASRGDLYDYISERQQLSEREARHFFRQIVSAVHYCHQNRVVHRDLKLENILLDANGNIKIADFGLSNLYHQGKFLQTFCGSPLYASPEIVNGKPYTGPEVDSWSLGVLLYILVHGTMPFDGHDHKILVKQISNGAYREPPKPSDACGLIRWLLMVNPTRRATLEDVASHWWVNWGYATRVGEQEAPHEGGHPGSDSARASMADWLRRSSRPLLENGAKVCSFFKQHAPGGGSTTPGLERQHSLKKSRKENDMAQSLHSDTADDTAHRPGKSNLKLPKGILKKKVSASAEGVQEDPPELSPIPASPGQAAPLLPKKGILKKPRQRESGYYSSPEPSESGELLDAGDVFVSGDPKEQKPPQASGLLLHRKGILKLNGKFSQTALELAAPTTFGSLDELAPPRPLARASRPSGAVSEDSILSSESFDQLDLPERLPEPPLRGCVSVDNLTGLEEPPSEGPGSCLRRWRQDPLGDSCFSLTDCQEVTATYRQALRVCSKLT

Block 1
Structure (SMILES): Cc1nc(Nc2ncc(C(=O)Nc3c(C)cccc3Cl)s2)cc(N2CCN(CCO)CC2)n1
Mode: inhibitor
Concentration: 10 µM
For NUAK2 (Homo sapiens, UniProt Q9H093): inhibition read under 50%.
The inhibition was under 50% (Ribosomal protein S6 kinase alpha-2, kinase domain 1 (RPS6KA2, Homo sapiens, UniProt Q15349)).
The inhibition was 94% (DMPK (Homo sapiens, UniProt Q09013)).
It gave under 50% for inhibition (DCLK3 (Homo sapiens, UniProt Q9C098)).
For IRAK3 (Homo sapiens, UniProt Q9Y616): inhibition read under 50%.
The inhibition was 100% (FYN (Homo sapiens, UniProt P06241)).
It gave under 50% for inhibition (DAPK1 (Homo sapiens, UniProt P53355)).

Block 2
Target: GTPase KRas (KRAS, Homo sapiens, UniProt P01116)
Observed: target engagement in cells
Method: BRET
The IC50 of `CC(=O)N1CCN(c2nc(OC[C@@H]3CCCN3C)nc3c2CCN(c2cccc4cccc(Cl)c24)C3)C[C@@H]1CC#N` is reported as 750 nM.
For `CN1CCC[C@H]1COc1nc2c(c(N3CCN(S(C)(=O)=O)[C@@H](CC#N)C3)n1)CCN(c1cccc3cccc(Cl)c13)C2`, the IC50 was 410 nM.
For `CCC(=O)N1CCN(c2nc(OC[C@@H]3CCCN3C)nc3c2CCN(c2cccc4cccc(Cl)c24)C3)C[C@@H]1CC#N`, the IC50 was 590 nM.

Block 3
Compound: Cn1cc(Cl)c2c(Oc3c(F)cc(Nc4cc(Cl)nc(N)n4)cc3F)ccnc21
Concentration: 0.1 µM
PRKACB (Homo sapiens, UniProt P22694); cell-free assay, competition with immobilised ligand — remaining binding: 92%.
It gave 100% for remaining binding (ROS1 (Homo sapiens, UniProt P08922); cell-free assay, competition with immobilised ligand).
The remaining binding was 94% (Tyrosine-protein kinase ABL1, phosphorylated (ABL1, Homo sapiens, UniProt P00519, Q252H); cell-free assay, competition with immobilised ligand).
PAK1 (Homo sapiens, UniProt Q13153); cell-free assay, competition with immobilised ligand — remaining binding: 100%.
For MAP3K10 (Homo sapiens, UniProt Q02779); cell-free assay, competition with immobilised ligand: remaining binding read 100%.
It gave 93% for remaining binding (YES1 (Homo sapiens, UniProt P07947); cell-free assay, competition with immobilised ligand).
The remaining binding was 100% (Ribosomal protein S6 kinase alpha-5, N-terminal kinase domain (RPS6KA5, Homo sapiens, UniProt O75582); cell-free assay, competition with immobilised ligand).
For CDK19 (Homo sapiens, UniProt Q9BWU1); competition binding: remaining binding read 88%.
For CDC42BPG (Homo sapiens, UniProt Q6DT37); competition binding: remaining binding read 100%.
For EGFR (Homo sapiens, UniProt P00533, del746-750); cell-free assay, competition with immobilised ligand: remaining binding read 73%.
CSNK1G1 (Homo sapiens, UniProt Q9HCP0); cell-free assay, competition with immobilised ligand — remaining binding: 100%.
FRK (Homo sapiens, UniProt P42685); cell-free assay, competition with immobilised ligand — remaining binding: 81%.
It gave 76% for remaining binding (PIK3CA (Homo sapiens, UniProt P42336, Q546K); cell-free assay, competition with immobilised ligand).
It gave 85% for remaining binding (DCLK1 (Homo sapiens, UniProt O15075); cell-free assay, competition with immobilised ligand).
For MAP3K20 (Homo sapiens, UniProt Q9NYL2); cell-free assay, competition with immobilised ligand: remaining binding read 97%.
For Non-receptor tyrosine-protein kinase TYK2, JH1 (TYK2, Homo sapiens, UniProt P29597); cell-free assay, competition with immobilised ligand: remaining binding read 81%.
It gave 94% for remaining binding (MYLK3 (Homo sapiens, UniProt Q32MK0); cell-free assay, competition with immobilised ligand).
BMPR1A (Homo sapiens, UniProt P36894); binding, competition with immobilised ligand — remaining binding: 95%.
MAP3K9 (Homo sapiens, UniProt P80192); cell-free assay, competition with immobilised ligand — remaining binding: 96%.
It gave 74% for remaining binding (Tyrosine-protein kinase ABL1, phosphorylated (ABL1, Homo sapiens, UniProt P00519, F317L); cell-free assay, competition with immobilised ligand).
It gave 89% for remaining binding (COQ8B (Homo sapiens, UniProt Q96D53); cell-free assay, competition with immobilised ligand).
Ribosomal protein S6 kinase alpha-1, N-terminal kinase domain (RPS6KA1, Homo sapiens, UniProt Q15418); cell-free assay, competition with immobilised ligand — remaining binding: 86%.

Block 4
SMILES: COc1ccc(S(=O)(=O)N(CCO)c2ccccc2CN(C)CC=Cc2ccc(Cl)cc2)cc1
Observed: enzyme activity
Mode: inhibitor
Concentration: 0.5 µM
Reference: control
For CAMKK1 (Homo sapiens, UniProt Q8N5S9): remaining activity read 106%.
The remaining activity was 110% (PRKCQ (Homo sapiens, UniProt Q04759)).
It gave 104% for remaining activity (EPHA2 (Homo sapiens, UniProt P29317)).
PAK1 (Homo sapiens, UniProt Q13153) — remaining activity: 96%.
It gave 94.7% for remaining activity (MUSK (Homo sapiens, UniProt O15146)).
It gave 100% for remaining activity (PRKCZ (Homo sapiens, UniProt Q05513)).
The remaining activity was 102% (CSNK1D (Homo sapiens, UniProt P48730)).
It gave 111% for remaining activity (JAK1 (Homo sapiens, UniProt P23458)).
The remaining activity was 97% (MAP3K20 (Homo sapiens, UniProt Q9NYL2)).
For SRPK1 (Homo sapiens, UniProt Q96SB4): remaining activity read 105%.
CAMK1 (Homo sapiens, UniProt Q14012) — remaining activity: 105%.
The remaining activity was 97.1% (TYRO3 (Homo sapiens, UniProt Q06418)).

For quick reference, copied from above (block 4):
The remaining activity was 102% (CSNK1D (Homo sapiens, UniProt P48730)).
It gave 111% for remaining activity (JAK1 (Homo sapiens, UniProt P23458)).
The remaining activity was 97% (MAP3K20 (Homo sapiens, UniProt Q9NYL2)).
For SRPK1 (Homo sapiens, UniProt Q96SB4): remaining activity read 105%.
